Results collected from several papers.
Each numbered part is a random draw from the data of one study; scales do not carry over between parts. Substitutions count along the parent as printed.

Set 1
Target: Sal-like protein 4, full length isoform B (SALL4, Homo sapiens, UniProt Q9UJQ4-2, residues 1-616)
Technique: universal PBM
Molecule type: double-stranded DNA, one strand shown
Matrix: in vitro
Concentration: not given
Setting: 8-mer, flanks averaged, mean of replicates
Direction: higher = stronger binding
Target sequence (chain): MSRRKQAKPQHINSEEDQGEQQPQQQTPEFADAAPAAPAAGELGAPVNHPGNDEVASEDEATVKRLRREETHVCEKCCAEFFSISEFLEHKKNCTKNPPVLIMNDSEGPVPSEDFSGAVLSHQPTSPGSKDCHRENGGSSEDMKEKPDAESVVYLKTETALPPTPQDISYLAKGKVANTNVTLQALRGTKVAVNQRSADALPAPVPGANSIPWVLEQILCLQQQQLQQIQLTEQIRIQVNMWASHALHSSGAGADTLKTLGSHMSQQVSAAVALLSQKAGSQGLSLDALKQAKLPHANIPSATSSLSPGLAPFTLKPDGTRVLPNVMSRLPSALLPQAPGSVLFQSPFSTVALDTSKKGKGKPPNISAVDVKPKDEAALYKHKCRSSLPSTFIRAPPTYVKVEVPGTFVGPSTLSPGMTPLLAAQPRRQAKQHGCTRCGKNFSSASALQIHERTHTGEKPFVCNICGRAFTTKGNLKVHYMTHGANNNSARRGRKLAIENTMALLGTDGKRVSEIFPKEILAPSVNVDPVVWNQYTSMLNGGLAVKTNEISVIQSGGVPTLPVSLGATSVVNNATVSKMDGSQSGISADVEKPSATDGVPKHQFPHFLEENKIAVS
Strand	E-score
CTGACTGC	-0.175
CTGGCCGA	-0.257
CCTGAGCA	-0.145
GACACCGA	-0.131
ATCCAGGG	-0.136
CCGCTTAC	-0.19
GGTCAGAA	0.0014
GCACGGCA	-0.0639
CAGTGATA	0.114
AGTCCCAA	-0.112
AAAATATC	0.36
CTAACCCA	-0.112
CTTACTAC	0.151
CTGACTTC	-0.241
TAGCACAA	0.0502
AGATGTAT	0.305
TAGTTCAA	0.00125

Set 2
Target: ABI1, truncated, D143A, DHFR fusion (Arabidopsis thaliana)
Technique: DHFR PCA, deep sequencing
Matrix: yeast
Setting: methotrexate growth selection, single substitutions
With: (+)-ABA 0.39 µM
Relative to: wild-type fitted maximum
Direction: higher = stronger binding
Starting sequence: PYL1, truncated, DHFR fusion (Arabidopsis thaliana); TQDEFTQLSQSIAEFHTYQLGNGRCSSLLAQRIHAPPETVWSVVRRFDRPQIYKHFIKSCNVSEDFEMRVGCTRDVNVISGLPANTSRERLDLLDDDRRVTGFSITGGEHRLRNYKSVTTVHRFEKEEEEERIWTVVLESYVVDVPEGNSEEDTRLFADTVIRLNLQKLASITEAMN; partner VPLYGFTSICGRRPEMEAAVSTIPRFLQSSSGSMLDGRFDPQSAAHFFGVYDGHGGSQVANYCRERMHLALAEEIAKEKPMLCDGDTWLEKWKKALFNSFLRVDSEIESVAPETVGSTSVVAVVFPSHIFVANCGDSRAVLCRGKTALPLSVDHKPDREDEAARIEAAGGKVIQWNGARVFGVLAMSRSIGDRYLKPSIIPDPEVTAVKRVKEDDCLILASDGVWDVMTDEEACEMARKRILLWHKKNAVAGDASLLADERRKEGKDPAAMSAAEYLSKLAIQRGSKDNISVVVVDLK
Substitution	relative binding score [%]
D92R	2.65
S63Q	37.6
N22V	50.4
I33Y	-1.38
D95L	-13.4
V44Y	-13
M176P	13
Q167K	59.8

Set 3
Target: Histone acetyltransferase KAT6A, winged helix 1, GST fusion (KAT6A, Homo sapiens, UniProt Q92794, residues 1-85)
Technique: protein binding microarray
Molecule type: double-stranded DNA, one strand shown
Matrix: in vitro
Concentration: not given
Setting: 8-mer, flanks averaged, mean of 2 arrays, mostly near background
Relative to: not given
Direction: higher = stronger binding
Residues (chain): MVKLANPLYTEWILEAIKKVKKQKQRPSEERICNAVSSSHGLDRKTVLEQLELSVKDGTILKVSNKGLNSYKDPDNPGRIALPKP
Strand	E-score
ATAGTAGC	0.0522
AACAGTAA	-0.0537
CAGGTTGA	-0.0535
CGGTGGTA	0.127
CGGCGGAG	0.433
ATCGGCTC	0.0805
CGCGCCAA	0.358
GACCATGA	-0.0734
AAGCATCC	0.0708
CCTACGTA	0.0624
CACGCGCA	0.404
AGCCATGC	-0.0705
ATATGGGA	-0.161
GGAAGGAA	-0.109
ACTGCATG	-0.119
GGGGAGAA	-0.0175
CCTGGAAA	-0.103
CACCCTTC	-0.243
AGTGTTGA	-0.0407
AGACAAGG	-0.0356
ACCGCCGA	0.309
CACAGCGG	0.181

Set 4
Target: CCND2, cyclin fold, Cln2 fusion (human)
Technique: yeast growth competition, sequencing
Matrix: yeast
Setting: weak parent motif
Relative to: not given
Direction: higher = stronger binding
Starting sequence: ORC1 docking peptide (human); PRARKRLELGNLG; partner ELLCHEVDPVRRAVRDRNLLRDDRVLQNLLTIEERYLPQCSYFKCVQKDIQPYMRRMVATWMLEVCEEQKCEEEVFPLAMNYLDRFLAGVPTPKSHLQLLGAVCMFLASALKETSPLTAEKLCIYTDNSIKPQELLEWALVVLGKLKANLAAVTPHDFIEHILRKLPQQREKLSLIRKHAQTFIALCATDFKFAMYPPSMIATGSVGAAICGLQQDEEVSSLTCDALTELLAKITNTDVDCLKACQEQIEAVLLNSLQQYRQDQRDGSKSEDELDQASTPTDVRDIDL
Substitution	normalised enrichment score
LRARKRLELGNLG [P1L]	-0.0361
PRARKRLEHGNLG [L9H]	-0.0936
PRARKGLELGNLG [R6G]	0.474
PRARKRLELGNLH [G13H]	0.134
PRAMKRLELGNLG [R4M]	0.204
PRARKRLELNNLG [G10N]	-0.19
PRARKCLELGNLG [R6C]	0.0502
YRARKRLELGNLG [P1Y]	0.397
PRARKRLELGNRG [L12R]	-0.126
FRARKRLELGNLG [P1F]	-0.462
PVARKRLELGNLG [R2V]	0.339
PRGRKRLELGNLG [A3G]	-0.0824
PRAKKRLELGNLG [R4K]	0.242

Set 5
Target: Interferon regulatory factor 3, full length, phosphomimetic (IRF3, Homo sapiens, UniProt Q14653, residues 1-427, S386D/S396D/S398D/S402D/T404D/S405D)
Technique: protein-binding microarray
Molecule type: double-stranded DNA, one strand shown
Matrix: in vitro
Concentration: 2540 nM top
Setting: 60-bp whole probe
With: salmon DNA 0.4 mg/ml
Relative to: random background probes
Direction: higher = stronger binding
All sequences stand within: GCCTAGCAC … GTCTTGATTCGCTTGACGCTGCTG
Target sequence (chain): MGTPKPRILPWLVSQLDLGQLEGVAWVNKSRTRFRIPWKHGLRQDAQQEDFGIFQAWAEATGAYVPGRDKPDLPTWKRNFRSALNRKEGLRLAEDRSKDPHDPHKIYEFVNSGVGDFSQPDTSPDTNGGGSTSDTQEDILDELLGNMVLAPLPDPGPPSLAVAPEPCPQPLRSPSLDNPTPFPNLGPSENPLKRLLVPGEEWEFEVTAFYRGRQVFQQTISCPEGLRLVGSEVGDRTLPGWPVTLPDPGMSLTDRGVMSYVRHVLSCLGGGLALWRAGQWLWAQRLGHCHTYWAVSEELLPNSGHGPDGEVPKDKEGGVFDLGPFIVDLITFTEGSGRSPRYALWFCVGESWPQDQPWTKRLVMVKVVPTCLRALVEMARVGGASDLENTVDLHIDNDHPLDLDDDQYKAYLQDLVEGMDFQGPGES
Strand	fitted relative affinity [z-score]
TCAGTGTTCTTTTCTGTTACTGTGCTA	2.06
TTAGATTACAGACTGGATTAGTGCTAG	0.259
TTAGGTTCCAGTTTCGATTAGTGCTAG	6.13
GAGGGACTGGACACTGGGGACGTGCTA	-1.07
TTTGCTTTCTTTTTGCACTCGTGCTAG	2.96
TGGACTGCACAAGGGCCAGTGTGCTAG	-0.737
TCATTTCTAAAACTCTTACTGTGCTAG	2.37
TTTTCAGCATCGCTCAGCACGTGCTAG	1.02
ATATGTGTATATATAATATAGTGCTAG	0.624
TTAGGACTGGCGACTGGGTTAGTGCTA	-1.15
ACCAGTTTTCTTTTCATTACGTGCTAG	5.35
CCAGCTCTGATGTTGGGAAAGTGCTAG	0.169
TTTGGTTTCCTTATCCTTTAGTGCTAG	8.78
TTGGATTCCAGTTTCGATTAGTGCTAG	4.38

Set 6
Target: Phosphate system positive regulatory protein PHO4, full length, GST-tagged (PHO4, Saccharomyces cerevisiae, UniProt P07270, residues 1-312)
Technique: competition protein-binding microarray
Molecule type: double-stranded DNA, one strand shown
Matrix: in vitro
Concentration: 2 µM
Setting: whole 60-bp probe, lowest competitor level
With: Cbf1 competitor, 0.05 µM
Direction: higher = stronger binding
All sequences stand within: … GTCTTGATTCGCTTGACGCTGCTG
Residues (chain): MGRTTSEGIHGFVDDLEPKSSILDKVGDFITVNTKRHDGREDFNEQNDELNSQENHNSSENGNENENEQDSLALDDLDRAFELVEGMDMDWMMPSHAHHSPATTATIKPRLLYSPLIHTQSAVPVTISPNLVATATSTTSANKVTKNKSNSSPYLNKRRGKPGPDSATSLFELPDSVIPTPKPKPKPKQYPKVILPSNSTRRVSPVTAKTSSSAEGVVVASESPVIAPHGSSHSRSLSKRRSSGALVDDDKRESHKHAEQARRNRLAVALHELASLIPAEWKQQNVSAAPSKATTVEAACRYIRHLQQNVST
Strand	fluorescence intensity [a.u.]
GGTGGGGGACCTGTAGTCGTGCCGAGCGATCCGCTT	6760
AAATTACTAAGTTGACCAGTGGGTGACGCCGTATGA	3640
GCAATTGAGCTTTAGCACGTGCAATTAGGATGAAAA	19100
CTTTCCCGATCTTGACTAGTGGGTGTAGCACATTTG	4090
GACACTTCTTTGTATAACGTGACGGTGGTGTCGCCA	7940
CTTTCCCGATCTTGCTTGGTGGGTGTAGCACATTTG	4340
CGGGGTTAAGTTTGCCGTGTGGGTGGCTTGCAGCAG	5370
CGTCCTAGCGATTGAGTGGTGGGTGCCATGAGGAAG	6830
CGCGAATGAGTTTGCCACGTCGTTTGCCCCGATGTT	4490
AGCATAATGCCGGACCATGTGAAAAGTTCACTCAAA	6780
CCGAACCTTTGAGCGGTCATGACAACTTCAATTCTT	2940
